Experimental data of several laboratories.
Compare with care: the assays were run in different laboratories. Numbers after ± are the reported error.

`C=CC(=O)N1CCC[C@@H](n2nc(-c3ccc(Oc4ccccc4)cc3)c3c(N)ncnc32)C1` has a Tmax of 2.5 h (Wistar rat, plasma; oral, dose not given, suspension).
For `CNC(=O)c1cccc(-c2ccc(O[C@H]3O[C@H](CO)[C@@H](O)[C@H](O)[C@@H]3O)c(C)c2)c1`, the Tmax was 0.083 h (Sprague-Dawley rat, male, plasma; intravenous, 3 mg/kg).
`N=C(N)NCCNC(=O)C1(Nc2ccccc2)CCN(Cc2ccccc2)CC1` gave a Tmax of 0.2 h (female Sprague-Dawley rats, plasma; oral, 50 mg/kg).
With `Cc1cc(-c2ccc3cc[nH]c(=O)c3c2)ccc1O[C@H]1O[C@H](CO)[C@@H](O)[C@H](O)[C@@H]1O` the Tmax was 0.083 h (male Sprague-Dawley rat, plasma; intravenous, 3 mg/kg, group mean).
The Tmax of `O=C1c2ccncc2C(=O)c2c1[nH]c1ccccc21` is reported as 0.08 h (Sprague-Dawley rat, male, plasma; intravenous, 5 mg/kg).
The Tmax of `Cc1cccc(CNC(=O)c2cn(CCNC(=O)c3ccccc3S)c3cc4c(cc3c2=O)OC(F)(F)O4)n1` is reported as 9.33 ± 7.33 h (Sprague-Dawley rat, male, plasma; intramuscular, 10 mg/kg of parent drug).
`CN1CCC[C@H](CN2c3ccccc3Sc3ccccc32)C1.Cl` gave a Tmax of 6 h (Wistar rat female, lung; oral, 16 mg/kg).
For `Cc1cccc(CNC(=O)c2cn(CCNC(=O)c3ccccc3Sc3c([N+](=O)[O-])ncn3C)c3cc4c(cc3c2=O)OC(F)(F)O4)n1`, the Tmax was 0.083 h (Sprague-Dawley rat, male, whole blood; intramuscular, 3 mg/kg of parent drug).
The Tmax of `CCc1cc(C(=O)NC)c2nccc(N3CCc4c(cc(Cn5ccnc5)cc4-c4cn(C)nc4C(F)(F)F)C3=O)c2c1` is reported as 1.8 h (Sprague Dawley rat, male, plasma; oral, 100 mg/kg once daily, 7 days).
`CSc1ccccc1C(=O)NCCn1cc(C(=O)NCc2cccc(C)n2)c(=O)c2cc3c(cc21)OC(F)(F)O3` has a Tmax of 2.08 ± 1.08 h (Sprague-Dawley rat, male, whole blood; intramuscular, 10 mg/kg of parent drug).
`O=C(O)C1=CO[C@@H](O[C@@H]2O[C@H](CO)[C@@H](O)[C@H](O)[C@H]2O)[C@@H]2C(CO)=CC[C@H]12` gave a Tmax of 2.5 ± 0.87 h (Sprague-Dawley rat, internal jugular vein plasma; oral, 500 mg/kg Eu + 217 mg/kg Pc extract, dosed as combined Eu and Pc extracts).

Repeated from above:
`CN1CCC[C@H](CN2c3ccccc3Sc3ccccc32)C1.Cl` gave a Tmax of 6 h (Wistar rat female, lung; oral, 16 mg/kg).
